Published values collected from several papers.
Compare with care: the assays were run in different laboratories. ± marks the error that the study gave. Converted amounts (≈) assume the structure as drawn.
Organism: Mycobacterium tuberculosis

CCCCCCc1ccc(Oc2ccccc2Br)c(O)c1
MIC (microplate Alamar Blue; 6 days + 24 h, 37 °C): 3.13 mg/L

[2H]c1c(C([2H])([2H])[2H])c([2H])n2c(C(=O)NCc3cccc(N(C)C)c3)c(C)nc2c1[2H]
MIC (MABA; H37Rv, GAS medium): 0.0502 ± 0.0064 µM

COC(=O)C(O)=CC(=O)c1ccccc1Br
MIC99 (MABA; H37Rv; acetate carbon source): 8 µM (≈ 2.28 µg/mL)

CCCCCCCCCC1N=C(N)N=C(N)N1c1ccc(Cl)cc1.Cl (racemic)
MIC90 (microplate alamar blue; H37Rv; GAST medium, glycerol carbon source): 1.5 µM

Cc1ccc(F)c(C(=O)C=C(O)C(=O)OCc2ccccc2)c1Cl
MIC99 (MABA; H37Rv; acetate carbon source): < 1 µM

CCCCCCC1N=C(N)N=C(N)N1c1ccc(Cl)cc1.Cl (racemic)
MIC90 (microplate alamar blue; H37Rv; GAST medium, glycerol carbon source): 5.7 µM

[2H]c1c(C([2H])([2H])[2H])c([2H])n2c(C(=O)NCc3ccc(C(C)(C)C)cc3)c(C)nc2c1[2H]
MIC (MABA; H37Rv, 7H12 medium): 0.0027 µM

CCCC/C=C/C(=O)N[C@@H](Cc1cc(F)cc(F)c1)C(=O)N[C@@H](COC(=O)[C@@H]1CCCN1C(C)=O)C(=O)OC
MIC (H37Rv; together with: 50 µg/mL verapamil): 0.78 mg/L

CCCCCCCCCCCC1N=C(N)N=C(N)N1c1ccc(Cl)cc1.Cl (racemic)
MIC90 (microplate alamar blue; H37Rv; 7H12 medium): 0.7 µM

O=C(OCc1ccccc1)C(O)=CC(=O)c1ccccc1Br
MIC99 (MABA; H37Rv; dextrose carbon source): 8 µM (≈ 2.89 µg/mL)

Cc1ccc2nc(C)c(C(=O)NCc3ccc(C(F)(F)F)cc3)n2c1
MIC (MABA; H37Rv, 7H12 medium): 0.0071 ± 0.0025 µM

Excerpt of the above:
CCCC/C=C/C(=O)N[C@@H](Cc1cc(F)cc(F)c1)C(=O)N[C@@H](COC(=O)[C@@H]1CCCN1C(C)=O)C(=O)OC
MIC (H37Rv; together with: 50 µg/mL verapamil): 0.78 mg/L
